Experimental data gathered from unrelated publications.
Protocols differ between the studies behind these lines. ± gives the spread as reported.

SMILES	cell line	assay	setting	scale	measurement	value
COc1cc(CNC(=O)C[C@H](C)CCC=C(C)C)ccc1OCc1cn(-c2ccc([N+](=O)[O-])cc2)nn1	NCI/ADR-RES	SRB	10 µM, 48 h	–	growth	17.6%
CC/C=C\C/C=C\C/C=C\C/C=C\C/C=C\C/C=C\CCC(=O)Nc1ccn(C2OC(CO)C(O)C2(F)F)c(=O)n1 (stereo not drawn)	OVCAR-4	cell growth or viability, SRB	–	–	GI50	14.5 µM
O=Cc1c(O)ccc2ccccc12	HUVEC	RNA sequencing, measured: ATF3	75 µM, 24 h	baseline: DMSO	log2 fold change	4.47
OCCNc1ccc(-c2nc3cc(OCCF)ccc3n3cccc23)cc1	HEK293 DR-GFP reporter	homologous recombination	48 h	–	concentration for near-complete inhibition	30 to 40 µM
Cc1c(C)c(C)[c-](C)c1C.[C-]#[O+].[C-]#[O+].[C-]#[O+].[Cl-].[Cl-].[Cl-].[Ir+3].[Re+].c1cnc(-c2ncccn2)nc1	MDA-MB-468	mitochondrial co-localization, fluorescence microscopy	25 µM, 48 h	–	Pearson correlation coefficient	0.764
C=CC(OC(C)=O)c1ccc(OC(C)=O)c(OC)c1 (stereo not drawn)	MDA-MB-231	Western blot	IC50, 24 h	baseline: untreated	cleaved PARP level	4.8 fold
COc1ccc([C@@H]2CC(=O)c3c(O)cc(O[C@@H]4O[C@H](CO[C@@H]5O[C@@H](C)[C@H](O)[C@@H](O)[C@H]5O)[C@@H](O)[C@H](O)[C@H]4O)cc3O2)cc1O	MRC5	trypan blue exclusion	50 µg/mL, 72 h	–	cell count	20800 ± 404
CC(=O)OC[C@H]1O[C@@H](Sc2sc(C(=O)c3ccc(C)cc3)c(N)c2-c2nc3ccccc3s2)[C@H](OC(C)=O)[C@@H](OC(C)=O)[C@H]1OC(C)=O	Malme-3M	SRB	10 µM, 48 h	baseline: untreated	growth	98%
CCCCCCCCCCCCCCCOC(=O)/C=C/c1cc(O)c(O)c(OC)c1	MDA-MB-231	propidium iodide flow cytometry	concentration not given, 24 h	–	cells in G2/M phase	25%
NS(=O)(=O)c1ccc(-n2cc(Cn3c(=O)c(Cc4ccccc4)nc4ccccc43)nn2)cc1	HCT-116	qRT-PCR, measured: BCL-2	concentration not given, 72 h	baseline: untreated	mRNA level	0.347 ± 0.013 fold
O=C(N1CCCC1)n1cc(-c2ccc(-c3ccccc3)cc2)nn1	mouse T-cells	N-terminal labelling enrichment, measured: TFG N-terminal peptides	1 nM, 6 h, protein median	baseline: DMSO	SILAC ratio	1.13 ± 0.09
CCCCCCCCCCCCCCCC(=O)OCC(CSC[C@H](N)C(=O)N[C@@H](CO)C(=O)N[C@@H](CCCCN)C(=O)N[C@@H](CCCCN)C(=O)N[C@@H](CCCCN)C(=O)N[C@@H](CCCCN)C(=O)NCCCCCC(=O)N[C@@H](CCCCN)C(=O)N[C@@H](CC(C)C)C(=O)N[C@H](C(=O)N[C@@H](Cc1ccccc1)C(=O)N[C@@H](Cc1ccccc1)C(=O)N[C@@H](Cc1ccc2ccccc2c1)C(=O)O)C(C)C)OC(=O)CCCCCCCCCCCCCCC (stereo partly drawn)	BV-2	RT-qPCR, measured: Marco	1.0 µM, 12 h	–	mRNA level	increased
Cc1ccc(C(C)C)cc1.O=C(N=P(c1ccccc1)(c1ccccc1)c1ccccc1)c1ccccn1.[Cl-].[Cl][Ru+]	MDA-MB-231 and HCC1806	PI flow cytometry	IC20, 24 h	–	sub-G0 cells increase	< 1%
C=CC(=O)Nc1cccc(-c2cnc3[nH]cc(C(=O)NC(C)(C)C)c3n2)c1	NK-S1	measured: phospho-STAT3/5	1.0 µM, pre-treated 2 h	–	time to full inhibition after washout	4 h
Cc1cc(/C=C/c2ccc(O)c(O)c2)[nH]n1	CHO	–	2.5 µM, 2 h pretreatment, read 18 h post-irradiation, together with: 4 Gy radiation	baseline: irradiated control	reduction in micronuclei	~25%
O=C(CSc1nc2ccccc2s1)Nc1nonc1[N+](=O)[O-]	Ramos	qRT-PCR, measured: ACTB and HPRT1	15 µM, 8 h	–	mRNA level	no effect
CCCC[n+]1cccc(C2NC(C(=O)OCC)C34c5c6c7c8c9c%10c(c%11c%12c3c3c5c5c%13c6c6c7c7c9c9c%14c%10c%10c%11c%11c%12c%12c3c3c5c5c%13c%13c6c6c7c9c7c9c%14c%10c%10c%11c%11c%12c3c3c5c5c%13c6c7c6c9c%10c%11c3c56)C824)c1 (stereo not drawn)	BC-3	cell growth or viability	24 h	–	CC50	9.6 µM
Nc1nc2cc(CC[C@H]3C[C@@H](n4ccc5c(N)ncnc54)[C@H](O)[C@@H]3O)ccc2cc1Br	NCI-H520	cell growth or viability, MTT	6 days	–	GI50	0.0004 µM
COc1cc(CNC(=O)C[C@H](C)CCC=C(C)C)ccc1OCc1cn(-c2ccc(F)cc2)nn1	NCI/ADR-RES	SRB	10 µM, 48 h	–	growth	45.4%
COc1ncccc1CN(C(=O)OCc1ccc([N+](=O)[O-])cc1F)[C@H]1C[C@@H]1c1ccccc1 (racemic)	THP-1 cells	colony forming unit	–	baseline: EC50 wild type over NTR-expressing	selectivity ratio	10 ± 5
Cc1cnc2c(ccc3c(C)c(C)cnc32)c1C.O=C([O-])Cc1ccccc1Nc1c(Cl)cccc1Cl.O=C([O-])Cc1ccccc1Nc1c(Cl)cccc1Cl.[Cu+2]	HMLER-shEcad	–	IC20, 5 d	–	mammosphere number and size	no effect
COc1cc(/C=C/C(=O)/C=C(O)/C=C/c2ccc(OCC(=O)N3CCOCCOCCOCCOCC3)c(OC)c2)ccc1OCC(=O)N1CCOCCOCCOCCOCC1	SK-LU-1	cell growth or viability, SRB	5 µM	–	inhibition	20.8%
N#Cc1ccc(C=O)o1	human sickle cell (SS) red blood cells	–	2 mM	baseline: 5-HMF	antisickling activity fold improvement	~2.3 fold
O=C1Nc2ccc(F)cc2C1=Cc1c(Cl)[nH]c2c1ccc1ccccc12	CNS cancer subpanel of NCI-60	–	48 h	–	TGI	6.46 µM
CC1(C)C(=CC=C2CCCC(C=CC3=[N+](CCCCCC(=O)O)c4ccccc4C3(C)C)=C2c2ccccc2)N(CCCCCC(=O)O)c2ccccc21	MDA-MB-231	–	together with: 10% FBS	baseline: serum-free medium	cellular uptake	decreased
COc1cc(CNC(=O)C[C@H](C)CCC=C(C)C)ccc1OCc1cn(-c2ccc(C#N)cc2)nn1	NCI-H522	SRB	10 µM, 48 h	–	growth percent	63.5%

SMILES	cell line	assay	setting	scale	measurement	value
CC(C)C[C@H](NC(=O)[C@H](CC(C)C)NC(=O)[C@@H](Cc1c[nH]c2ccccc12)NC(=O)[C@H](Cc1ccccc1)NC(=O)[C@@H](Cc1c[nH]c2ccccc12)NC(=O)[C@H](CCC(N)=O)NC(=O)[C@H](CCC(N)=O)NC(=O)[C@@H]1CCCN1C(=O)[C@H](CCCCN)NC(=O)[C@@H]1CCCN1C(=O)[C@H](N)CCCNC(=N)N)C(N)=O	HEK293 expressing NK1R	nuclear ERK, antagonist, FRET biosensor	concentration not given, 30 min, together with: substance P	–	ERK activity	inhibited
Cc1nc(Nc2ncc(C(=O)Nc3c(C)cccc3Cl)s2)cc(N2CCN(C(=O)CN)CC2)n1	KU812	flow cytometry	20 nM	–	onset of apoptosis	3 h
CC1OC2OC3C4=C(OC3(C)C12O)C(=O)c1c(O)cccc1C4=O (stereo not drawn)	MDA-MB-231	annexin V/PI flow cytometry	2 µg/mL, 48 h	–	late apoptotic cells	10.7%
CCC(=C(c1ccc(Cl)cc1)c1ccc(OCCCN(C)C)cc1)c1ccc(OC)cc1	OVCAR-4	cell growth or viability	–	–	GI50	5.25 µM
CO[C@H]1O[C@H](COC(c2ccccc2)(c2ccccc2)c2ccccc2)[C@@H](OS(=O)(=O)c2ccccc2)[C@H](OS(=O)(=O)c2ccccc2)[C@H]1OS(=O)(=O)c1ccccc1	Ehrlich	cell growth or viability, MTT	250 µg/mL, 24 h	–	inhibition	8.31%
COc1cc(CNC(=O)C[C@H](C)CCC=C(C)C)ccc1OCc1cn(-c2ccccc2[N+](=O)[O-])nn1	UO-31	SRB	10 µM, 48 h	–	growth percent	36.5%
CCn1nc2c(c1Nc1nc(-c3ccc(-n4cnc(C)c4)c(OC)n3)cs1)CCCC2	SH-SY5Y-APP	sandwich ELISA	100 pM to 10 µM, 24 h	–	total amyloid beta level	no effect
COc1cc(O)c(Cl)cc1/C=C/C(=O)c1ccc(C(F)(F)F)cc1	mouse bone marrow macrophages	flow cytometry	10 and 20 µM, together with: LPS	–	CD206 expression	increased
CCN(CC)CC(=O)Nc1cccc(-n2cc(-c3ccc4ccc(-c5cn(-c6cccc(NC(=O)CN(CC)CC)c6)nn5)cc4c3)nn2)c1	786-0 cells	Western blot	1 x IC50, 4 h, hypoxia	baseline: untreated	HIF-2α protein level	61%
COc1cc(CNC(=O)C[C@H](C)CCC=C(C)C)ccc1OCc1cn(-c2cccc(C(F)(F)F)c2)nn1	NCI-H522	SRB	10 µM, 48 h	–	growth percent	83.1%
C=CC(OC(C)=O)c1cc(OC)c(OC(C)=O)c(OC)c1 (stereo not drawn)	MDA-MB-231	Western blot	IC50, 24 h	baseline: untreated	p53 protein level	2.3 fold
Cc1cc(O)cc(O)c1C(=O)c1c2c3c(c(O)cc(C)c3oc1=O)C(=O)c1c(O)cc(O)cc1-2	Bel-7402	western blot	concentration not given, 12 h	baseline: untreated	Bax/Bcl-2 ratio	increased
C[C@H](N)C(=O)N[C@@H](Cc1c[nH]c2ccccc12)C(=O)N[C@@H](CCC(N)=O)C(=O)N[C@@H](Cc1c[nH]c2ccccc12)C(=O)N[C@@H](CCCNC(=N)N)C(=O)N[C@@H](Cc1c[nH]c2ccccc12)C(=O)N[C@@H](CCC(N)=O)C(=O)N[C@@H](Cc1c[nH]c2ccccc12)C(=O)N[C@@H](CCCNC(=N)N)C(N)=O	MDA-MB-468	MTT	concentration not given, 2 h, 37 °C, 5% FBS	baseline: untreated cells	viability	53 ± 4%
CCCCc1ccc(C(=O)N[C@@H](CO)C(=O)N[C@H](C(=O)N2CCC[C@H]2C(=O)N[C@@H](CC(N)=O)C(=O)NCC(=O)N[C@@H](CC(C)C)C(=O)O)[C@@H](C)OP(=O)(O)O)cc1	HeLa-H2B-GFP, QQ transfected	–	30 µM, 24 h	–	aberrant mitoses	53.8%
N=C(N)NCCC[C@H](NC(=O)[C@H](Cc1c[nH]c2ccccc12)NC(=O)[C@H](CCC(N)=O)NC(=O)[C@H](Cc1c[nH]c2ccccc12)NC(=O)[C@H](CCCNC(=N)N)NC(=O)[C@H](Cc1c[nH]c2ccccc12)NC(=O)[C@H](CCC(N)=O)NC(=O)[C@H](Cc1c[nH]c2ccccc12)NC(=O)[C@@H](N)CCCNC(=N)N)C(N)=O	young human fibroblasts primary	MTT	concentration not given, 2 h, 37 °C, 5% FBS	baseline: untreated cells	viability	97 ± 5%
C=C[C@H](OC(C)=O)c1ccc(OC(C)=O)cc1	MDA-MB-231	Western blot	IC50, 24 h	baseline: untreated	p53 protein level	3.3 fold
COc1cc(CNC(=O)C[C@H](C)CCC=C(C)C)ccc1OCc1cn(-c2ccc(Cl)c(Cl)c2)nn1	UO-31	SRB	10 µM, 48 h	–	growth percent	60.8%
OC(CN1CCNCC1)Cn1c2ccc(Br)cc2c2cc(Br)ccc21 (stereo not drawn)	BAK knockout MEF	apoptosis, inhibitor	2 µM, 8 h, together with: TNFα and cycloheximide	–	caspase-3/7 activity	inhibited
CC(=O)Oc1ccccc1C(=O)[O][Pt]([NH2])([NH2])([Cl])([Cl])[O]C(=O)CCCc1ccccc1	six human cancer lines	cytotoxicity, MTT	–	baseline: cisplatin	IC50 fold lower	27 fold
COc1cc(CNC(=O)C[C@H](C)CCC=C(C)C)ccc1OCc1cn(-c2cccc(Cl)c2)nn1	NCI/ADR-RES	SRB	10 µM, 48 h	–	growth	99.2%
N#Cc1cccc(-c2ccc(=O)n(Cc3cccc(-c4ncc(OCC5CCN(CC(=O)N6CCN(c7ccc8c(c7)C(=O)N(C7CCC(=O)NC7=O)C8=O)CC6)CC5)cn4)c3)n2)c1 (stereo not drawn)	EBC-1, Hs746T	Western blot, measured: phospho-MET	10 and 100 nM, sustained 24 h	–	time to complete inhibition	6 h
CC(=O)OC[C@H]1O[C@@H](Sc2sc(C(=O)c3ccc(Br)cc3)c(N)c2-c2nc3ccccc3s2)[C@H](OC(C)=O)[C@@H](OC(C)=O)[C@H]1OC(C)=O	UO-31	SRB	10 µM, 48 h	baseline: untreated	growth	61.4%
CC(=O)N[C@H](C(=O)N[C@H](C(=O)N[C@@H](CCCNC(=N)N)C(=O)N1Cc2ccccc2C[C@H]1C(=O)N[C@@H](Cc1ccccc1)C(N)=O)C1CCCCC1)C(C)C	BC-3 T cells	inhibitor, CFSE dilution	concentration not given, 5 days, together with: anti-CD3 antibody or PHA	–	T cell proliferation	no inhibition
COc1cc(CNC(=O)C[C@H](C)CCC=C(C)C)ccc1O	NCI/ADR-RES	SRB	10 µM, 48 h	–	growth	94.5%
COc1ccc([C@@H]2CC(=O)c3c(O)cc(O[C@@H]4O[C@H](CO[C@@H]5O[C@@H](C)[C@H](O)[C@@H](O)[C@H]5O)[C@@H](O[C@H]5O[C@H](CO)[C@@H](O)[C@H](O)[C@H]5O)[C@H](O)[C@H]4O)cc3O2)cc1O	A549	cell migration, scratch	150 µg/mL, 0 h	–	gap closure	0%

Excerpt of the above:
SMILES	cell line	assay	setting	scale	measurement	value
COc1cc(CNC(=O)C[C@H](C)CCC=C(C)C)ccc1OCc1cn(-c2ccc(F)cc2)nn1	NCI/ADR-RES	SRB	10 µM, 48 h	–	growth	45.4%
COc1ncccc1CN(C(=O)OCc1ccc([N+](=O)[O-])cc1F)[C@H]1C[C@@H]1c1ccccc1 (racemic)	THP-1 cells	colony forming unit	–	baseline: EC50 wild type over NTR-expressing	selectivity ratio	10 ± 5
Cc1cnc2c(ccc3c(C)c(C)cnc32)c1C.O=C([O-])Cc1ccccc1Nc1c(Cl)cccc1Cl.O=C([O-])Cc1ccccc1Nc1c(Cl)cccc1Cl.[Cu+2]	HMLER-shEcad	–	IC20, 5 d	–	mammosphere number and size	no effect
COc1cc(/C=C/C(=O)/C=C(O)/C=C/c2ccc(OCC(=O)N3CCOCCOCCOCCOCC3)c(OC)c2)ccc1OCC(=O)N1CCOCCOCCOCCOCC1	SK-LU-1	cell growth or viability, SRB	5 µM	–	inhibition	20.8%
N#Cc1ccc(C=O)o1	human sickle cell (SS) red blood cells	–	2 mM	baseline: 5-HMF	antisickling activity fold improvement	~2.3 fold
O=C1Nc2ccc(F)cc2C1=Cc1c(Cl)[nH]c2c1ccc1ccccc12	CNS cancer subpanel of NCI-60	–	48 h	–	TGI	6.46 µM
CC1(C)C(=CC=C2CCCC(C=CC3=[N+](CCCCCC(=O)O)c4ccccc4C3(C)C)=C2c2ccccc2)N(CCCCCC(=O)O)c2ccccc21	MDA-MB-231	–	together with: 10% FBS	baseline: serum-free medium	cellular uptake	decreased
